{"data": "Measured values of several laboratories", "note": "Each line is one published result; not all experiments were run side by side."}
{"SMILES": "COc1cccc2c(NCc3ccccc3)nc(Nc3cccc(Cl)c3)nc12", "sample": "aqueous buffer", "pH": "pH 7.4", "solubility": "< 1e-05 mg/mL"}
{"SMILES": "CC[C@@H]1CN(CC(=O)[O-])[C@H](CC)CN[C@H](CC)CN(CC(=O)[O-])[C@H](CC)CN1.[Mn+2]", "sample": "water", "solubility": "240 mg/mL"}
{"SMILES": "O=C(NO)c1ccc(/N=N/c2ccccc2)cc1", "sample": "water", "solubility": "< 2 µM"}
{"SMILES": "CN(C)C(=O)c1cccc(N2Cc3cnn(Cc4ccc(F)cc4)c3C2)c1", "sample": "water", "solubility": "65 µM"}
{"SMILES": "C[C@@H](CO)NC(=O)c1cc(-c2ccc(Cl)cc2)nn(-c2cnn(C)c2)c1=O", "sample": "aqueous buffer", "time": "24 h", "pH": "pH 6.5", "solubility": "8.7 µM"}
{"SMILES": "CN(C)C(=O)c1ccnc(N2Cc3cn(Cc4ccc(F)cc4)nc3C2)n1", "sample": "water", "solubility": "> 100 µM"}
{"SMILES": "Brc1cccc(CNc2nc(NCc3ccccc3)c3ccccc3n2)c1", "sample": "aqueous buffer", "pH": "pH 5", "solubility": "0.00037 mg/mL"}
{"SMILES": "COc1ncc2nc(C)n(Cc3ncc(S(N)(=O)=O)cc3F)c2c1-c1ccccc1", "sample": "aqueous buffer", "pH": "pH 7.4", "solubility": "65.6 µM"}
{"SMILES": "N#Cc1cccc(N2CN(CC(=O)NCC(F)(F)F)C(=O)C23CCN(C(=O)c2cnc4[nH]ncc4c2)CC3)c1", "sample": "aqueous buffer", "pH": "pH 6.5", "solubility": "1500 mg/mL"}
{"SMILES": "CN(C)C(=O)c1cncc(N2Cc3cn(Cc4ccc(F)cc4)nc3C2)n1", "sample": "water", "solubility": "65 µM"}
{"SMILES": "Nc1cc2cccnc2c2ncccc12.[Cl-].[Cl-].[Ru+2].c1cnc2c(c1)ccc1cccnc12.c1cnc2c(c1)ccc1cccnc12", "sample": "water", "solubility": "41200 µM"}
{"SMILES": "Cc1ncc2[nH]c(=O)n(-c3cnc(Oc4cccc5c4C(C)(C)CO5)c(Cl)c3C)c2n1", "sample": "aqueous buffer", "pH": "pH 7", "solubility": "142 µM"}
{"SMILES": "COCCN(C)CC(=O)NC(Cc1ccc(-c2ccccc2)cc1)B(O)O (stereo not drawn)", "technique": "nephelometry", "sample": "aqueous buffer", "pH": "pH 6.8", "solubility": "> 200 µM"}
{"SMILES": "CN(C)c1ccc(/C=C/c2cc(/C=C3\\Sc4ccccc4N3CCCN3CCCC3)c3ccccc3[n+]2C)cc1", "technique": "HPLC", "sample": "water", "time": "24 h", "temperature": "25 °C", "solubility": "329 µM"}
{"SMILES": "OCC1OC(n2cnc3c(NCc4ccc(Br)s4)ncnc32)C(O)C1O (stereo not drawn)", "sample": "aqueous buffer", "pH": "pH 6.8", "solubility": "0.25 mg/mL"}
{"SMILES": "C/C(N)=N/C(=N\\S(=O)(=O)c1ccc(C(F)(F)F)cc1)N1C[C@H](c2ccccc2)C(c2ccc(Cl)cc2)=N1", "sample": "simulated intestinal fluid", "pH": "pH 6.8", "solubility": "1.46 µM"}
{"SMILES": "CC1=Cc2cc(Cl)ccc2OC12Oc1ccc(Cl)cc1C=C2C", "technique": "absorbance", "sample": "water", "solubility": "0.01 mg/mL"}
{"SMILES": "O=C(CN1CN(c2ccc(Cl)c(Cl)c2)C2(CCN(C(=O)c3ccc4[nH]ncc4c3)CC2)C1=O)NCC(F)(F)F", "sample": "aqueous buffer", "pH": "pH 6.5", "solubility": "2300 mg/mL"}
{"SMILES": "CN(C)S(=O)(=O)c1ccc(S(=O)(=O)N2CCC(n3c(=O)[nH]c4ccccc43)CC2)cc1", "technique": "HPLC", "sample": "water", "time": "24 h", "temperature": "20 °C", "solubility": "≤ 0.001 mg/mL"}
{"SMILES": "Clc1cccc(Nc2nc(NCc3ccccc3)c3ccccc3n2)c1", "sample": "aqueous buffer", "pH": "pH 7.4", "solubility": "2e-05 mg/mL"}
{"SMILES": "CSCC[C@H](NC(=O)[C@@H](CCCCN)NC(=O)[C@H](CC(C)C)NC(=O)[C@@H](CC(N)=O)NC(=O)[C@H](CCSC)NC(=O)[C@H](NC(=O)[C@H](Cc1c[nH]c2ccccc12)NC(=O)CNC(=O)[C@H](CO)NC(=O)[C@H](Cc1ccc(O)cc1)NC(=O)[C@H](CCC(=O)O)NC(=O)[C@H](CC(N)=O)NC(=O)[C@H](CCSC)NC(=O)[C@@H](Cc1c[nH]c2ccccc12)NC(=O)[C@H](CO)NC(=O)[C@@H](CC(C)C)NC(=O)[C@H](CC(N)=O)NC(=O)[C@@H](CCSC)NC(=O)[C@H](CCC(=O)O)NC(=O)CNC(=O)[C@@H](N)CCCNC(=N)N)[C@H](C)O)C(=O)NCC(=O)N[C@@H](CCCNC(=N)N)C(=O)O", "sample": "water", "solubility": "> 25 mg/mL"}
{"SMILES": "CN(C)C(=O)c1cccc(N2Cc3cn(Cc4ccc(F)cc4F)nc3C2)c1", "sample": "water", "solubility": "> 100 µM"}
{"SMILES": "CCC1(CC)CC(=O)N(C2c3cc(C(=O)NC4c5ccccc5CC4O)ccc3OC2(C)COC)C(=N)N1 (stereo not drawn)", "sample": "aqueous buffer", "pH": "pH 7", "solubility": "≥ 100 µM"}
{"SMILES": "C[n+]1c(/C=C/c2ccc(N(c3ccccc3)c3ccccc3)cc2)cc(/C=C2\\Sc3ccccc3N2CCCN2CCCC2)c2ccccc21", "technique": "HPLC", "sample": "water", "time": "24 h", "temperature": "25 °C", "solubility": "102 µM"}
{"SMILES": "Cc1ccc2c(c1)nc(NC(=O)c1cccc(C(F)(F)F)c1)n2[C@H]1CC[C@H](N)CC1", "sample": "aqueous buffer", "solubility": "32.9 µM"}
{"SMILES": "Cc1cccc(Oc2ccc(-n3c(=O)[nH]c4cccnc43)cn2)c1C", "sample": "aqueous buffer", "pH": "pH 7", "solubility": "47 µM"}
{"SMILES": "O=C(CCCCCCCCCCCCCCCCC(=O)Oc1c2n(cc(C(=O)NCc3c(F)cc(F)cc3F)c1=O)CC1OC3CCC(C3)N1C2=O)Oc1c2n(cc(C(=O)NCc3c(F)cc(F)cc3F)c1=O)CC1OC3CCC(C3)N1C2=O (stereo not drawn)", "sample": "water", "time": "24 h", "solubility": "0.00196 mg/mL"}
{"SMILES": "Cc1cc(C)nc(NC(=S)N2CCN(c3ccc(C(F)(F)F)cn3)CC2)c1", "sample": "PBS", "time": "6 h", "pH": "pH 7.4", "solubility": "1.23 µM"}
{"SMILES": "Cc1[nH]nc2c1N=C(c1ccccc1Cl)c1cnc(N3CCOCC3)cc1N2", "sample": "simulated gastric fluid", "pH": "pH 1", "notes": "acidic", "solubility": "4.52 mg/mL"}
{"SMILES": "CN(C)C(=O)c1ccnc(N2Cc3cn(Cc4ccc(F)cc4F)nc3C2)n1", "sample": "water", "solubility": "> 100 µM"}
{"SMILES": "COc1cccc2c(NCc3ccccc3)nc(Nc3cccc(F)c3)nc12", "sample": "aqueous buffer", "pH": "pH 5", "solubility": "9e-05 mg/mL"}
{"SMILES": "O=C(c1ccnc(N2Cc3cn(Cc4ccc(F)cc4)nc3C2)n1)N1CCOCC1", "sample": "water", "solubility": "> 100 µM"}
{"SMILES": "O=c1c2ccccc2[se]n1CCCCCCn1[se]c2ccccc2c1=O", "sample": "water", "time": "24 h", "temperature": "25 °C", "solubility": "0.0016 mg/mL"}
{"note": "For quick reference, copied from above:"}
{"SMILES": "CCC1(CC)CC(=O)N(C2c3cc(C(=O)NC4c5ccccc5CC4O)ccc3OC2(C)COC)C(=N)N1 (stereo not drawn)", "sample": "aqueous buffer", "pH": "pH 7", "solubility": "≥ 100 µM"}
{"SMILES": "C[n+]1c(/C=C/c2ccc(N(c3ccccc3)c3ccccc3)cc2)cc(/C=C2\\Sc3ccccc3N2CCCN2CCCC2)c2ccccc21", "technique": "HPLC", "sample": "water", "time": "24 h", "temperature": "25 °C", "solubility": "102 µM"}
{"SMILES": "Cc1ccc2c(c1)nc(NC(=O)c1cccc(C(F)(F)F)c1)n2[C@H]1CC[C@H](N)CC1", "sample": "aqueous buffer", "solubility": "32.9 µM"}
